Published values of several laboratories.
Parts stem from different laboratories: compare values within a part only.

Block 1 — method: protein-binding microarray; molecule type: double-stranded DNA, one strand shown; sample: in vitro; tested at: 940 nM top; setting: 60-bp whole probe; with: salmon DNA 0.4 mg/ml; relative to: random background probes; direction: higher = stronger binding; measurement: fitted relative affinity; all sequences stand within: GCCTAGCAC … GTCTTGATTCGCTTGACGCTGCTG
Target: Interferon regulatory factor 5, full length, phosphomimetic (IRF5, Homo sapiens, UniProt Q13568-2, residues 1-514, S451D/S453D/S456D/S462D)
TTATGTTTCGGTCTCGGTTAGTGCTAG: 9.54 z-score
TAGTATTTTTTTCCAGAGGGGTGCTAG: 1.07 z-score
GACGATTCCGGTTTCGAGACGTGCTAG: 4.29 z-score
GACGGTATCGACATTGGGGACGTGCTA: 3.74 z-score
CAGTTTATTTATTTTTACATGTGCTAG: 0.694 z-score
GACGTTCTCCTACTGCTGACGTGCTAG: 0.501 z-score
CTTTCTTTATGCACTCTCTACGTGCTA: 1.39 z-score
GATGATATCGGGTATCGAGACGTGCTA: 1.28 z-score

Block 2 — method: RNAcompete; molecule type: RNA; sample: in vitro; tested at: 20 nM; setting: 7-mer, probes averaged, single round; relative to: mean of 7-mers; direction: higher = stronger binding; measurement: 7-mer Z-score
Target: PABPC1L2, full length, GST fusion (mouse, UniProt A0ABA7IW68)
Residues (chain): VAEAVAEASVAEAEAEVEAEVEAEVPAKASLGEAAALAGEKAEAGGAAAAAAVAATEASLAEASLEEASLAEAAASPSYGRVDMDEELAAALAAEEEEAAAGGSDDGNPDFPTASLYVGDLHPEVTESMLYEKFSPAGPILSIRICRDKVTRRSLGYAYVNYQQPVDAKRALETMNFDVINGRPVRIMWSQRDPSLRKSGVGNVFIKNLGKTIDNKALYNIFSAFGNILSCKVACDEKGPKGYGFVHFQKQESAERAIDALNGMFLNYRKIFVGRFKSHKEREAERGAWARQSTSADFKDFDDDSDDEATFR
CGCACAG: -0.159
AACGCAC: 0.0986
UUACGUC: -0.269
GUACCAU: -0.209
GGGGCCG: 0.0642
GACGUAC: -0.144
CAGGCUG: -0.0627
UAUAUAU: -0.137

Further values, each from its own experiment
SEPTIN2 (Homo sapiens, UniProt Q15019)
cross-linked residues (ADAMTS1 (Homo sapiens, UniProt Q9UHI8); cross-linking MS; cell fractions; with: DSSO): K325 to S27

PSMA7 (Homo sapiens, UniProt O14818)
interaction screen (PSMA8 (Homo sapiens, UniProt Q8TAA3); cross-linking MS; hits only): cross-linked

ATP5PO (Homo sapiens, UniProt P48047)
cross-linked residues (LCN10 (Homo sapiens, UniProt Q6JVE6); cross-linking MS; cell fractions; with: DSSO): K84 to K71

KKAKARAFTISDS
binding score (human cyclin A2; peptide binding, competitive growth sequencing; peptide, Saccharomyces cerevisiae, cyclin A2-Cln2 fusion strain; concentration not given, mutational scanning library; relative to: unfused Cln2 strain, direction not given): 0.295

COPB1 (Homo sapiens, UniProt P53618)
cross-linked residues (COPZ1 (Homo sapiens, UniProt P61923); cross-linking MS; cell fractions; with: DSSO): S528 to K39

ASNS (Homo sapiens, UniProt P08243)
cross-linked residues (MMRN1 (Homo sapiens, UniProt Q13201); cross-linking MS; cell fractions; with: DSSO): K244 to K340

For quick reference, copied from above (block 1):
GACGATTCCGGTTTCGAGACGTGCTAG: 4.29 z-score
GACGGTATCGACATTGGGGACGTGCTA: 3.74 z-score
